Measurements pooled from the literature.
A part holds a random share of what one study measured. Substitutions count along the parent as printed.

Study 1
Target: RING finger protein unkempt homolog, zinc fingers 1-6, GST-SBP tag (UNK, Homo sapiens, UniProt Q9C0B0, residues 30-357)
UniProt Q9C0B0, sequence (30-357, looked up): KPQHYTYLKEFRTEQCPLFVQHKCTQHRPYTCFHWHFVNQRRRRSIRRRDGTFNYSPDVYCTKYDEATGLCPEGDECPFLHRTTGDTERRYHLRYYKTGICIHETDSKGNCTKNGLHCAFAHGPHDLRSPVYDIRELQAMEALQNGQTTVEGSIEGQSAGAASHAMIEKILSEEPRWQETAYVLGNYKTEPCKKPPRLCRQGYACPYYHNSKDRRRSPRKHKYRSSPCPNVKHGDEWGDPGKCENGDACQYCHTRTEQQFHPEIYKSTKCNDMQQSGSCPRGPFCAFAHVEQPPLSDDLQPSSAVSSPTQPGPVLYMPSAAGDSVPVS
Technique: RNA Bind-n-Seq
Molecule type: RNA
Medium: in vitro
Tested at: not given
Setting: RNA with constant flanks, ends assumed
Reference: input RNA pool
Reading: higher = stronger binding
Quantity: bound/input enrichment
All sequences stand within: GGGAGUUCUACAGUCCGACGAUC … CAACAGAGGAUUGAGCAUCA
UGGUAUCUCUUCUUAGUGUUCUAUUUAUCUUAUUUGCUAAUGGGAGCACUUCUUCCUUUGUCCGGCUGUGCUUUACUGAUAAAACCAAGUAUUGAAUAAAGAGAGUUAAUUAUCUUUUUA: 0.558 ratio
AUACUGUGGAUAUUUGUGAAUUGUGUGGUUUGUUUGUUUGUUUUCUUUUAUGUACUGUUGACCCGUUAUGGCACUUACUGAUUAAACUUACACUGCUGCAGAUUGCUGUGUAACAAGCCA: 0.407 ratio
GAUGAUGAUGAAGAAUCUGGACGAUUACGUUUUAAAACUGAAAGGAAAGAAGGAACAAUUAUCCGGCUUUCAGAUGUAACUAGAGAGAGAAGGAACAUUCCAGAAACUUUGGAACUUUCU: 0.272 ratio
CGCCUGAGUACAGACGUGACUUGUAGCUUGUUGCCUAACAGGCUUACUAACCCAAGACAGUUCCGAAAAUGUAUGUUAAAUCAAUCAUUCUCGAAGGAUUCAAGUCCUAUGCACAGAGGA: 0.127 ratio
GAAAAUGGAAGGUGUGUUACUAAGCUGGAGAGCAUGGGGUUCCGAGUGGGGCAAGGACUGACCGAAAGGUUUACGAAAGAUACUGCAAGGUUCAAGGAUGAAUUAGACAUCAUGAAGUUC: 0.34 ratio
GGCCCUUGACCGUGUGGCCUCUGCCUGGCUGUUUGGGGUCCUGCACGGCUUUCCCACCACCUGCCGCUCUUGUUGACCUGCCUGUUCACCUCAUGAGUGAAGCGUCUGCCUGGCAGUGGG: 0.157 ratio
AAGGAACUCCAGGUUGAACUGUCUGGCUGAAGCAAGGGAGGGUCUGGCACGCCCCACCAACCGUAAAUCCCCCUGCCUAUAUUAUAAUGGAUCAUGCGAUAUCAGGAUGGGGAAUGUAUG: 0.277 ratio
GCGGAGAAGGACUCCCUGGACCCCUCCUUCACGCACGCCCUGCGCCUGGUGAACCAAGAAACCGAAAAGUUUCAAAAAGGAGAAGGCAAGGAUGAAGAAAAGUACAUCGAUGUGGUGAUU: 0.16 ratio
UGUAGAGCGAAUGUAUACCUGCUUCCCACAGGGGAGAUAGUUUAUUUUAUCGCCUCAGUGGCCGUCCUGUUUAAUUAUGAGGAGAGGACUCAGCGACACUACCUGGGUCAUACAGACUGU: 0.901 ratio
GUGGACACACAACAUUUAAUUAAACAAUUAAGGCAGCAUUUUGCUAUGCUCUGAUUGUUCCUCCGACCACAUAUGUUCUUAUGAAGCAGCAUUAUGCAAGGGGAAAAAAGCACUAUGUCU: 0.375 ratio
AGACUAGCCUAUGCUGAAAACAUAGCUCUGCUGGCAGAAACAGCUCUGAGAUUCCUGGAAUCCGUACAGUUAAAAAAUCUUAAUAUGGAAAAUGACCCCAAUAAUGAAGAAAUAGAUGAG: 0.572 ratio

Study 2
Target: CCNF, cyclin fold, Cln2 fusion (human)
Technique: yeast growth competition, sequencing
Medium: yeast
Setting: strong parent motif
Reference: not given
Reading: higher = stronger binding
Quantity: normalised enrichment score
Parent: CDC25A docking peptide (human); PPHRRRLLFACSP
R4L: 3.12
P13F: 6.44
R4G: 6.44
R6H: 3.24
R5I: 2.29
F9Q: 0.687
L8I: 8.87
P2M: 7.1
P1H: 7.67
F9W: 3.6
H3K: 2.52
C11K: 6.17
P13V: 7.2
H3R: 3.89
L7W: 2.7
C11Y: 8.15
R5K: 4.52
A10V: 7.41
S12G: 7.84
L8T: 5.85
R5V: 2.35
P13I: 7.26
L7A: 1.72
H3S: 9.81
C11P: 8.82

Study 3
Target: JUND, bZIP domain (human)
Technique: DHFR protein complementation
Medium: yeast
Setting: single substitutions, most at no-binding floor
Reference: wild-type JUN-FOS pair
Reading: higher = stronger binding
Quantity: binding fitness
Parent: JUN, bZIP domain (human); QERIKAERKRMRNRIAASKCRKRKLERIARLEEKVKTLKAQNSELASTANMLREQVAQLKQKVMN
L31E: -1.41 natural log
L45I: -1.28 natural log
L52M: -1.29 natural log
L38G: -1.42 natural log
R53G: -1.28 natural log
L38K: -1.4 natural log
R53F: -1.29 natural log

Study 4
Target: RNA binding protein fox-1 homolog 2, RRM domain, GST-SBP tag (RBFOX2, Homo sapiens, UniProt O43251-10, residues 100-194)
Technique: RNA Bind-n-Seq
Molecule type: RNA
Medium: in vitro
Tested at: 365 nM
Setting: natural RNA segment, single round, ends assumed
Reference: no-protein control
Reading: higher = stronger binding
Quantity: RBNS enrichment (R)
All sequences stand within: GGGAGUUCUACAGUCCGACGAUC … UGGAAUUCUCGGGUGCCAA
Construct (chain): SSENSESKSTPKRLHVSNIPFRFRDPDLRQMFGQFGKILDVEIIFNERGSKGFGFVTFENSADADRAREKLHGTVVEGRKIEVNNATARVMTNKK
GCUCAGGAAGUCUUUGGGGAAACUAAUGACCUGCAAAUUUGAAGUGGGUGACUGGCUUGGUGGCUUCUGCUAGCCAUCUAAGGCUGGAUAAGGAACUUCCCAGAUGAUUA: 0.395
AAAAAUCAUGAUAUUUAAAAAUGGUCAAAUAUUUGAGGCAAAAAAAAAAAAAAAAAGUGUCUCCAGGAGGCUGUCCAGCCUCGUGGCUCCAUUUCAACAUCUCCCCCCAG: 0.315
AUUUAGAAAACGGAAAUGCAGUUUGAAAUUCUGAAUUUGCAAAGUACUGUAACAGUAAUUUAUAGUAAUGUUUUAAAAUCAACUUUUUAUUGCCUUCUCACCAGCUGCAA: 0.606
GCAAGUAUGUAUAUAUGUGUAUGCUCAGAUUAACUUCCAUAGGUACAUAAGUGAAAGAAGUCUCAGUUCAGUGAACACAAAACUUAUUUAAAGAUGCUUUAUAUGUAGAA: 0.58
AGUCAGCCUUUAUUAGCACCAAAGACUUUAUGAAGAUCCCACACACAGACACACAUCCCUUCCCGCCUCCCCCCUGCCUUCAGUAGGAUCUGGCUCCGUGGCUGGAGGAC: 0.515
UUAUUAUUUAAUCUGCACUGAUUUUCCUGUCUUUGGUGGGUACAGUGUGAUAGGACCACUGUCCUGGCAGAGCAGGACUAAAGGAAUGUAGACCCCAUCUCAGUGUCUUC: 0.579
AUUGACUUCCCAAAUUUGUGUUUUUAAGAAGGCUUUGCUGCAAGCUACCAUUCCCAAUGGGGCAGUCAACUCUGAGAAUAUUACAAGCCAUCUUUAUUGCCAAAACCAGC: 0.497
CCUCCAUCCCUUGACGGUUCUGGCCUUCCCAAACUGCUUUUGAUCUUUUGAUUCCUCUUGGGCUGAAGCAGACCAAGUUCCCCCCAGGCACCCCAGUUGUGGGGGAGCCU: 0.523
CCAGACAACCACAAUGCCAGGUACGGGGUCUCUGAGCAGCAGCCAGUGCAGAUCCCCAUUUGCAGUAAGAUUGUACCUCAGCGGUACAAUUCCUCACCAAGGAAGUGGCU: 0.389
GAAUAAUAUCAAGAAAUUUUUCUUGUGAGGAAAUUCAUUUGGGGUGUGUACACUAAUGCUGUACUAGAUUCCCACAGAACAUCUAGCAAACAAAACUGAUACAAUCUGCU: 0.516
AUGUGGCAGUUAAACACUACCUUGAUCAUUCUCUCCUCUUUCCUCGAGGAACUCCUGGAGGGUUUGAGCGUCUGGAAACUCUCUGCUCUGACCCGAGGAAGCACCCUCCU: 0.203
GAUCUCUGAAGUUUAGUAUUUUUGCACUAUGACAAUUGCUAAGACUGGGAUUUUAAGCUAGGAUAUGAUUAUAUUUCCUAUAAAACUAAAACUUUUAUUUCAUAAAUUUU: 0.885

Study 5
Target: Interferon regulatory factor 5, full length, phosphomimetic (IRF5, Homo sapiens, UniProt Q13568-2, residues 1-514, S451D/S453D/S456D/S462D)
Technique: protein-binding microarray
Molecule type: double-stranded DNA, one strand shown
Medium: in vitro
Tested at: 940 nM top
Setting: 60-bp whole probe
Together with: salmon DNA 0.4 mg/ml
Reference: random background probes
Reading: higher = stronger binding
Quantity: fitted relative affinity
All sequences stand within: GCCTAGCAC … GTCTTGATTCGCTTGACGCTGCTG
TTAGGCATCCTTCTCCTTTAGTGCTAG: -0.0534 z-score
TTAGGTTTCGGGTATCGCTTAGTGCTA: 10.9 z-score
TTAGATCTCATTATCGATTAGTGCTAG: 1.13 z-score
GACGAACTGGGGTAACGAGACGTGCTA: 0.193 z-score
GTATGGATGTGTTTTAAATAGTGCTAG: 0.364 z-score
GACGGACTGGACTTTAGGGACGTGCTA: -0.736 z-score
GACGGTATCGGACTGGGGTCGTGCTAG: 3.43 z-score
TCTTCCTTTACTTTCTTTTTGTGCTAG: 3.27 z-score
TTAGGTATCCGTCTCGGTTAGTGCTAG: 2.07 z-score
TTAGATATCAGACTGTATTAGTGCTAG: -0.227 z-score
GACGAACTGGGGTTTCGAGCCGTGCTA: 1.37 z-score
GACGATATCAGTATCGAAACGTGCTAG: 2.76 z-score
TGAGAACTGGGGACTGGATTAGTGCTA: 0.16 z-score
GACGATTCCAGTTTTGAGACGTGCTAG: 0.0729 z-score
GACGGACTGGACGATCGGGACGTGCTA: -0.426 z-score
TTAGGTATCCTTTTCCTTTCGTGCTAG: 1.04 z-score
TTAGATTCCAGTGTCGATTAGTGCTAG: 0.146 z-score
TTAGGTATCAACACTGGGTTAGTGCTA: 1.34 z-score
TTACAACTGAGTCTCGATTAGTGCTAG: 3.25 z-score
GACGGACTGGACTATCGGTACGTGCTA: -0.118 z-score
ATAGGTTTCGGTTTCGGTTAGTGCTAG: 15.9 z-score
GACGGACTGAACACTGGGGACGTGCTA: -0.421 z-score
TTAGATACCGGGTTTCGATTAGTGCTA: 5.07 z-score
GACGGTATCGACTATCGGGAGGTGCTA: 5 z-score
GACGGTATCGGCACTGGGGACGTGCTA: 3.06 z-score
